# Published values gathered from unrelated publications.
# Compare with care: the assays were run in different laboratories. Several values in a cell are separate wells, animals, samples, runs or records. ± marks the error that the study gave.
# Chain of UniProt Q92633 (whole entry, unmodified, looked up): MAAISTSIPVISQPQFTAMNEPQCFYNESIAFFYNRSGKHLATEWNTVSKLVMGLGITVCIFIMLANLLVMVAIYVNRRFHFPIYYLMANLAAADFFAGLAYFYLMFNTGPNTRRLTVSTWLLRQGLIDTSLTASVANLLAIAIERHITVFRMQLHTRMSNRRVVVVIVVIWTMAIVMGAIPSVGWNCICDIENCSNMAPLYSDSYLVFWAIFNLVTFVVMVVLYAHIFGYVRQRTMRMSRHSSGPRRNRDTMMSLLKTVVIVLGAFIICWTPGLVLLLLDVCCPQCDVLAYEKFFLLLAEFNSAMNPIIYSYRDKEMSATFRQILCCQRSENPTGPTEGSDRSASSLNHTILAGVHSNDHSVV
# Chain of UniProt O94762 (whole entry, looked up): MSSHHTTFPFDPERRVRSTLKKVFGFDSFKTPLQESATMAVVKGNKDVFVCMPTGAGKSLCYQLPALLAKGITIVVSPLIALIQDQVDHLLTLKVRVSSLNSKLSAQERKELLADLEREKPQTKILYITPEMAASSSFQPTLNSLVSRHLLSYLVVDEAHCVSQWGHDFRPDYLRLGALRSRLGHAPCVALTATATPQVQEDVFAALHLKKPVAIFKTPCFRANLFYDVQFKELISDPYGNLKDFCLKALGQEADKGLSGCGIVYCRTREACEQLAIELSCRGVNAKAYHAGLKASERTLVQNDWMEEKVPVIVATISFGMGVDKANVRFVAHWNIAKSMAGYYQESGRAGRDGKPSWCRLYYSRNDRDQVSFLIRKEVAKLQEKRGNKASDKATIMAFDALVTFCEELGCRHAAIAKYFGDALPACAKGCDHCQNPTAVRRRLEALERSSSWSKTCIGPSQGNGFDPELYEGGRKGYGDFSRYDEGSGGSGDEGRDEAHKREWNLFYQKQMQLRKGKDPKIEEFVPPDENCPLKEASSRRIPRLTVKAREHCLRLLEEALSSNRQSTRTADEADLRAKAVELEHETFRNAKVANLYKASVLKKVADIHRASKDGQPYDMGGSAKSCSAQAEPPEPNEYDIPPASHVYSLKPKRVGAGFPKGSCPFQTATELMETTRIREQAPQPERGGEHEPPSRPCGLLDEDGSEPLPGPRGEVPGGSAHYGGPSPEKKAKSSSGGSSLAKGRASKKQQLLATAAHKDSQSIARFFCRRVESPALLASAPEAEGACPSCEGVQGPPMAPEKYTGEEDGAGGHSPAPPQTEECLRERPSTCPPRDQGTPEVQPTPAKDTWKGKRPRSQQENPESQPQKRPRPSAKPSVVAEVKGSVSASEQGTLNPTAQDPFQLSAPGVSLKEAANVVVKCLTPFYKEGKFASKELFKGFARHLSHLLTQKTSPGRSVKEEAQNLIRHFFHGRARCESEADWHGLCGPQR
Structure (SMILES),tested on,assay,test system,setting,how to read,measurement,result
O=C(Nc1ccccc1)c1ccc(Nc2nnc(-c3ccc(O)cc3)c3ccccc23)cc1,,formalin-induced pain,mouse,"intracerebroventricular, 0.01 3 µg per animal",,nociceptive behaviour,decreased
Nc1ncc(-c2cc(-c3cnn(CC(F)(F)F)c3)ncc2F)nc1C(=O)NC1CNCC(F)C1 (stereo not drawn),IKK-epsilon,KINOMEscan competition binding,,1 µM,baseline: DMSO control,remaining binding,100%
C=C(NC(=O)c1csc(-c2nc3c(cc2O)-c2nc(cs2)C(=O)NC(C(C)O)C(=O)NC(=C(C)OC)c2nc(cs2)C(=O)NC2c4nc(cs4)C(=O)NC(COC(=O)c4c5c6c(cccc6n4O)COC(=O)C(OC4CC(C)(O)C(N(C)C)C(C)O4)C2OC5)c2nc-3cs2)n1)C(N)=O (stereo not drawn),,,"cynomolgus monkey, plasma","intravenous, 9 mg/kg, single dose, infusion",,Cmax,34000 ng/mL
COC1OC(C)C(OC2OC(C)C(OS(=O)(=O)O)C(OC3OC(C)C(OC4OC(C)C(OS(=O)(=O)O)C(OC5OC(C)C(OC6OC(C)C(OS(=O)(=O)O)C(OS(=O)(=O)O)C6OS(=O)(=O)O)C(OS(=O)(=O)O)C5OS(=O)(=O)O)C4OS(=O)(=O)O)C(OS(=O)(=O)O)C3OS(=O)(=O)O)C2OS(=O)(=O)O)C(OS(=O)(=O)O)C1OS(=O)(=O)O (stereo not drawn),,,human plasma,128 µg/mL,,thrombin time,10.8 ± 0.2 s
COC1CN([C@H]2CC[C@H]([C@@]3(C)Oc4c(Cl)cc(C(=O)NCc5c(SC)cc(C)[nH]c5=O)c(C)c4O3)CC2)C1,,"RNA-seq, item: KAZN","human, whole blood","dose not given, 24 h",baseline: pretreatment baseline,log2 fold change,2.53
COc1cc(N2CCN(C(=O)C3CCCN3)CC2)ccc1Nc1ncc(Cl)c(Nc2ccccc2P(C)(C)=O)n1 (stereo not drawn),,,"nude mice, NCI-H3122 xenograft","oral, 25 mg/kg every two days, day 16",,tumour volume,399 mm3 and 686 mm3 and 454 mm3 and 474 mm3 and 126 mm3
C=CC(=O)Nc1cccc(Cn2ncc3cnc(Nc4cnn(CCOC)c4)nc32)c1,NEK9 human,"binding, KINOMEscan",,100 nM,lower = stronger binding,percent of control,99%
O=C(N[C@@H](Cc1coc2ccccc12)B(O)O)[C@@H]1C[C@H]2CC[C@@H]1O2,,tumour growth,"MM1.S, mouse, MM1.S multiple myeloma xenograft","oral, 10 mg/kg every 2 days, 48 h",,T/C,-53%
CC(=O)[O-].O.O.[O-]c1ccc(Br)cc1C=NCCN1CCOCC1.[Zn+2],,hydroxyl radical scavenging,,160 µM,,inhibition,37.5%
CN1CCC[C@]1(C)/C=C/S(=O)(=O)NC(=O)Nc1c2c(cc3c1CCC3)CCC2,,,"human, whole blood ex vivo","50 mg twice daily, day 19, 108 h, multiple ascending dose, together with: LPS and ATP",,IL-18 inhibition,62.3%
COC1OC(C)C(OS(=O)(=O)O)C(OC2OC(C)C(OS(=O)(=O)O)C(OC3OC(C)C(OS(=O)(=O)O)C(OC4OC(C)C(OS(=O)(=O)O)C(OC5OC(C)C(OS(=O)(=O)O)C(OC6OC(C)C(OS(=O)(=O)O)C(OS(=O)(=O)O)C6OS(=O)(=O)O)C5OS(=O)(=O)O)C4OS(=O)(=O)O)C3OS(=O)(=O)O)C2OS(=O)(=O)O)C1OS(=O)(=O)O (stereo not drawn),,,human plasma,128 µg/mL,baseline: control,thrombin time prolongation,1 fold
COc1cc(O)ccc1CCC(c1ccc(O)cc1)c1cc2c(c(C)c1O)OC(c1ccc(O)cc1)CC2 (mixture of isomers),,,human blood,"1 µM, together with: A23187",,PGE2 level,26 ± 3 pg/mL
COC1OC(C)C(OC2OC(C)C(OS(=O)(=O)O)C(OC3OC(C)C(OC4OC(C)C(OS(=O)(=O)O)C(OC5OC(C)C(OC6OC(C)C(OS(=O)(=O)O)C(OS(=O)(=O)O)C6O)C(OS(=O)(=O)O)C5O)C4O)C(OS(=O)(=O)O)C3O)C2O)C(OS(=O)(=O)O)C1O (stereo not drawn),,,human plasma,128 µg/mL,baseline: control,thrombin time prolongation,1 fold
CCN(CC)C(CO)c1cccc2c(C)c(C)oc12 (stereo not drawn),"Lysophosphatidic acid receptor 1 (LPAR1, Homo sapiens, UniProt Q92633, W271A)","G-protein dissociation, agonist, NanoBiT",HEK-293T,"100 pM, W271A mutant",baseline: baseline luminescence,fold change,1.03 and 1 and 0.983 and 1.01 and 1.02
COC1OC(C)C(OS(=O)(=O)O)C(OC2OC(C)C(OS(=O)(=O)O)C(OC3OC(C)C(OS(=O)(=O)O)C(OS(=O)(=O)O)C3OS(=O)(=O)O)C2OS(=O)(=O)O)C1OS(=O)(=O)O (stereo not drawn),,,human plasma,128 µg/mL,baseline: control,thrombin time prolongation,0.9 fold
Cc1ncsc1-c1ccc(C(C)NC(=O)C2CC(O)CN2C(=O)C(NC(=O)CCCCCCCCCCN2CCCC(Nc3ncc(Cl)c(Nc4ccccc4S(=O)(=O)C(C)C)n3)C2)C(C)(C)C)cc1 (stereo not drawn),22Rv1,"RNA-seq, item: WDR88 mRNA",,concentration not given,baseline: DMSO,log2 fold change,-2.41
COc1cc2c(NC3CCN(C(C)C)CC3)cc(N3CCOCC3)nc2cc1OCCCN1CCCC1,,"TMT quantitative proteomics, item: MFGE8","5xFAD mice, hippocampus",dose not given,,normalised protein abundance,-0.203 and 0.0907 and -0.0367 and 0.126 and 0.155 and 0.397 and 0.0753 and 0.0953
COc1ccc(C(=O)CCc2cc(C(CCc3ccc(O)cc3OC)c3ccc(O)cc3)c(O)cc2OC)cc1 (racemic),,,human blood,"1 µM, together with: A23187",,5-HETE level,4880 ± 2030 pg/mL
CCCC[C@H](NC(=O)COCCOCCNC(=O)CN1CCN(CC(=O)O)CCN(CC(=O)O)CC1)C(=O)N[C@H]1CC(=O)NCCCC[C@@H](C(N)=O)NC(=O)[C@H](Cc2c[nH]c3ccccc23)NC(=O)[C@H](CCCNC(=N)N)NC(=O)[C@@H](Cc2ccccc2)NC(=O)[C@H](Cc2c[nH]cn2)NC1=O [technetium-99m labelled],,,"C57 mouse, stomach","intravenous, 0.037 MBq, 0.5 h",,tissue uptake,2.06 ± 0.65 %ID/g
COC1OC(C)C(OS(=O)(=O)O)C(OC2OC(C)C(OS(=O)(=O)O)C(OC3OC(C)C(OS(=O)(=O)O)C(OC4OC(C)C(OS(=O)(=O)O)C(OC5OC(C)C(OS(=O)(=O)O)C(OC6OC(C)C(OS(=O)(=O)O)C(OC7OC(C)C(OS(=O)(=O)O)C(OC8OC(C)C(OS(=O)(=O)O)C(OC9OC(C)C(OS(=O)(=O)O)C(OC%10OC(C)C(OS(=O)(=O)O)C(OS(=O)(=O)O)C%10O)C9O)C8O)C7O)C6O)C5O)C4O)C3O)C2O)C1O (stereo not drawn),,,human plasma,128 µg/mL,baseline: control,thrombin time prolongation,0.9 fold
C=C1CC[C@H](OCCCNC(=O)CCOCCOCCOCCOCCOCCOCCOCCOCCOCCOCCOCCOCCOCCOCCOCCOCCOCCOCCOCCOCCOCCOCCOCCOCCOCCOCCOCCOCCOCCOCCOCCOCCOCCOCCOCCOCCNC(=O)CCN2C(=O)CC(SC[C@H](NC(=O)[C@H](Cc3ccccc3)NC(=O)[C@H](CC(N)=O)NC(=O)[C@H](Cc3c[nH]cn3)NC(=O)[C@@H](NC(=O)[C@H](CC(=O)O)NC(=O)[C@H](CCC(N)=O)NC(=O)[C@H](CC(C)C)NC(=O)[C@H](CCCCN)NC(=O)[C@H](CCCCN)NC(=O)[C@H](CCCNC(=N)N)NC(=O)[C@H](CC(C)C)NC(=O)[C@H](Cc3c[nH]c4ccccc34)NC(=O)[C@H](CCC(=O)O)NC(=O)[C@@H](NC(=O)[C@H](CCCNC(=N)N)NC(=O)[C@H](CCC(=O)O)NC(=O)[C@H](CCSC)NC(=O)[C@H](CO)NC(=O)[C@H](CC(N)=O)NC(=O)[C@H](CC(C)C)NC(=O)[C@H](Cc3c[nH]cn3)NC(=O)[C@H](CCCCN)NC(=O)CNC(=O)[C@H](CC(C)C)NC(=O)[C@H](CC(N)=O)NC(=O)[C@H](Cc3c[nH]cn3)NC(=O)[C@H](CCSC)NC(=O)[C@H](CC(C)C)NC(=O)[C@H](CCC(N)=O)NC(=O)[C@@H](NC(=O)[C@H](CCC(=O)O)NC(=O)[C@H](CO)NC(=O)[C@@H](NC(=O)[C@@H](N)CO)C(C)C)[C@@H](C)CC)C(C)C)C(C)C)C(=O)O)C2=O)C/C1=C/C=C1\CCC[C@]2(C)[C@@H]([C@H](C)CCCC(C)(C)O)CC[C@@H]12 (stereo partly drawn),,,"male cynomolgus monkey, plasma","subcutaneous, 0.007 mg/kg, single dose",,Cmax,10.8 ng/mL
Cc1ccc(N(O)/N=N/c2ccc(S(=O)(=O)Nc3nccs3)cc2)cc1,,carrageenan-induced paw edema,Wistar rat,"oral, 100 mg/kg, 1 h after carrageenan, together with: carrageenan 1% subplantar",higher = more edema,paw edema volume,5.78 ± 0.87 a.u.
CCCCCc1ccc(S(=O)(=O)N2CC2C(=O)OC)cc1 (stereo not drawn),,,"mouse, Lewis lung carcinoma","intraperitoneal, 15 mg/kg, 16 doses, day 9",,tumour volume,135 mm3
COc1ccccc1-c1ccncc1C(=O)Nc1nnc(OCc2ccc(Cl)cc2)s1,"RECQL5 (Homo sapiens, UniProt O94762)","ATPase activity, ADP-Glo",,"0.008 µM, 1 h",,remaining activity,101%

# Some of these lines once more:
Structure (SMILES),tested on,assay,test system,setting,how to read,measurement,result
COC1OC(C)C(OS(=O)(=O)O)C(OC2OC(C)C(OS(=O)(=O)O)C(OC3OC(C)C(OS(=O)(=O)O)C(OS(=O)(=O)O)C3OS(=O)(=O)O)C2OS(=O)(=O)O)C1OS(=O)(=O)O (stereo not drawn),,,human plasma,128 µg/mL,baseline: control,thrombin time prolongation,0.9 fold
COc1cc(N2CCN(C(=O)C3CCCN3)CC2)ccc1Nc1ncc(Cl)c(Nc2ccccc2P(C)(C)=O)n1 (stereo not drawn),,,"nude mice, NCI-H3122 xenograft","oral, 25 mg/kg every two days, day 16",,tumour volume,399 mm3 and 686 mm3 and 454 mm3 and 474 mm3 and 126 mm3
Cc1ncsc1-c1ccc(C(C)NC(=O)C2CC(O)CN2C(=O)C(NC(=O)CCCCCCCCCCN2CCCC(Nc3ncc(Cl)c(Nc4ccccc4S(=O)(=O)C(C)C)n3)C2)C(C)(C)C)cc1 (stereo not drawn),22Rv1,"RNA-seq, item: WDR88 mRNA",,concentration not given,baseline: DMSO,log2 fold change,-2.41
